Measured values from different studies.
Protocols differ between the studies behind these lines. Several values in a cell are separate wells, animals, samples, runs or records. Numbers after ± are the reported error.
Sequence of UniProt Q64663 (whole entry, unmodified, looked up): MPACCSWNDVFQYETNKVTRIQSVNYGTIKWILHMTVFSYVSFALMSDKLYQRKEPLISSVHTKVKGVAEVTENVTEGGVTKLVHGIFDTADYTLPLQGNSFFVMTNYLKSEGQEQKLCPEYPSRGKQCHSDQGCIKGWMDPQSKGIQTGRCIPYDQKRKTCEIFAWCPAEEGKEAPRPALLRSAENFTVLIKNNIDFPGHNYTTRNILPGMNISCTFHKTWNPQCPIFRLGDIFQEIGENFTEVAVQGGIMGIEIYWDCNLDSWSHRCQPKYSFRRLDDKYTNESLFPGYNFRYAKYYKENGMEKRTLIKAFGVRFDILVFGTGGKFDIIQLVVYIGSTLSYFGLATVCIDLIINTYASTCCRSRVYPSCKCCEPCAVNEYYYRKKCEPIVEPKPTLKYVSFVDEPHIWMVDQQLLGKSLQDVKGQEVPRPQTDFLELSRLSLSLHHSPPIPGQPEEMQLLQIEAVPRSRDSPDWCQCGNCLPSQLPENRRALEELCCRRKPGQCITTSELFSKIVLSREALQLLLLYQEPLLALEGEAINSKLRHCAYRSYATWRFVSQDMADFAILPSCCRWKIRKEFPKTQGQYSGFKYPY
Sequence of UniProt Q9NUX5 (whole entry, unmodified, looked up): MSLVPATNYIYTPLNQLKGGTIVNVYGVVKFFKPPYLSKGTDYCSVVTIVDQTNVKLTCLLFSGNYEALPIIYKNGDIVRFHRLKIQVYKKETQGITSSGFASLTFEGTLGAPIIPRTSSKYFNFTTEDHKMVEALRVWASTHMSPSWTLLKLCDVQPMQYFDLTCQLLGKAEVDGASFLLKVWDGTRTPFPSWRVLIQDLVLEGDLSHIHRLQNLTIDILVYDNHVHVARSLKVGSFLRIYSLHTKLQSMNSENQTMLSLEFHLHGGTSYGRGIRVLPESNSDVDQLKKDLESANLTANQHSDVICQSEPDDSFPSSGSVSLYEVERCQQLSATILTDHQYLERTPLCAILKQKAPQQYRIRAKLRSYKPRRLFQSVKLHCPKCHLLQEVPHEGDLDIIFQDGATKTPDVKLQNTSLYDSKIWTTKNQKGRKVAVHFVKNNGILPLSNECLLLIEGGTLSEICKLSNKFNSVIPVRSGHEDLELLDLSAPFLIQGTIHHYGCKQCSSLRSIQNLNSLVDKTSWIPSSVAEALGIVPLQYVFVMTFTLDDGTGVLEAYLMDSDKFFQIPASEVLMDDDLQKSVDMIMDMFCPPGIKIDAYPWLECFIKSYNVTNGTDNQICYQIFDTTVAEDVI
Sequence of UniProt P32787 (whole entry, looked up): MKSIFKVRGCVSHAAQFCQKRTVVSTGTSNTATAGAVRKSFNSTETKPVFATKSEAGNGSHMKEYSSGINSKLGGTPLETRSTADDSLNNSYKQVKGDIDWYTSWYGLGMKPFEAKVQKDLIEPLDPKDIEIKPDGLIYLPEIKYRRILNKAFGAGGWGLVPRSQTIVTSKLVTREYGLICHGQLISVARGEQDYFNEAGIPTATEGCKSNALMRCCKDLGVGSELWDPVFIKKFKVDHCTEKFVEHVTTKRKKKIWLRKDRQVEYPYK
Sequence of UniProt P18848 (whole entry, unmodified, looked up): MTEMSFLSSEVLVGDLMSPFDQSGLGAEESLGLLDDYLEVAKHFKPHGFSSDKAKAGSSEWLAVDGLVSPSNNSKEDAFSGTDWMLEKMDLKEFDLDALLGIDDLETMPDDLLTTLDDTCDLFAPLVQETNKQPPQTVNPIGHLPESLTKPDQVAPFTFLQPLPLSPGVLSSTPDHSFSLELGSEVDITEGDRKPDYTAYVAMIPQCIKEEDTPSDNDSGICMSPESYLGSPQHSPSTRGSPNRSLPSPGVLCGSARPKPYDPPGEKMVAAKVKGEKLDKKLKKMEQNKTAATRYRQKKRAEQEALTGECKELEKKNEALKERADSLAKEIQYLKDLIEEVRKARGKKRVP
Sequence of UniProt P0A7G6 (whole entry, unmodified, looked up): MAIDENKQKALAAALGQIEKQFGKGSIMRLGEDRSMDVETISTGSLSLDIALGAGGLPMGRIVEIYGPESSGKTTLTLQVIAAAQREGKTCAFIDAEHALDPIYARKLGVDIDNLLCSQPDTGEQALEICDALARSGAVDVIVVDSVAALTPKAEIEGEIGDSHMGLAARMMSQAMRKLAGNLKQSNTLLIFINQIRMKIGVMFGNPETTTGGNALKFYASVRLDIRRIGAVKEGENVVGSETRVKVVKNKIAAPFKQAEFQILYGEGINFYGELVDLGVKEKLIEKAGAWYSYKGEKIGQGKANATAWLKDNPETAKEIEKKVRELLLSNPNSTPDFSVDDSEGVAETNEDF
Sequence of UniProt Q6R0H1 (whole entry, looked up): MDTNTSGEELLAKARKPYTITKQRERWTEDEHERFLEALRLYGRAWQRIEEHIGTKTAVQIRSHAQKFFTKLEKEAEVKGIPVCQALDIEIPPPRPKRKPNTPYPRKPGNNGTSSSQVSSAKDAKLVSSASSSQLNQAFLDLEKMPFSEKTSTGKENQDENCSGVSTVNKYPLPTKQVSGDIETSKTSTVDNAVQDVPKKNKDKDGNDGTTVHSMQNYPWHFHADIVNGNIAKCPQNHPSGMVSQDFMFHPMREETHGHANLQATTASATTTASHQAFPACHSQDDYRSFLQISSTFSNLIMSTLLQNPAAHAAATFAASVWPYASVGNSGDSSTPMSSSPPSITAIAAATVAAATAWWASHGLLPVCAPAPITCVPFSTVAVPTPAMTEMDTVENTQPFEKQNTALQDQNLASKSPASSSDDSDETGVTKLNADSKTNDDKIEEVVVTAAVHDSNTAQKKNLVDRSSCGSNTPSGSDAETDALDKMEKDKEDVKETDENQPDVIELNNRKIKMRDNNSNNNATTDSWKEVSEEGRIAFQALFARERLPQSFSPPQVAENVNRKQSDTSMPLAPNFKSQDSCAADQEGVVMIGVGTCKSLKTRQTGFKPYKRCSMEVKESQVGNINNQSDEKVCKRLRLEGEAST
Sequence of UniProt Q15717 (whole entry, looked up): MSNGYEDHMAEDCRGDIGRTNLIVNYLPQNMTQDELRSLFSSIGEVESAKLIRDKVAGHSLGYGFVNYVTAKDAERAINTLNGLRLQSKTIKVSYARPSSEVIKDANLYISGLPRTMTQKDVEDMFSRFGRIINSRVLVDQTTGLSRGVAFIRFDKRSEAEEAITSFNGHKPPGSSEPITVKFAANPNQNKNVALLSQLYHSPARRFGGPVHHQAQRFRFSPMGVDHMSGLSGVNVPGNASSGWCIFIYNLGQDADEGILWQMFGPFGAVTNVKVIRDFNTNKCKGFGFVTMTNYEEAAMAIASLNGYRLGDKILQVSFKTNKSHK
Sequence of UniProt P46063 (whole entry, unmodified, looked up): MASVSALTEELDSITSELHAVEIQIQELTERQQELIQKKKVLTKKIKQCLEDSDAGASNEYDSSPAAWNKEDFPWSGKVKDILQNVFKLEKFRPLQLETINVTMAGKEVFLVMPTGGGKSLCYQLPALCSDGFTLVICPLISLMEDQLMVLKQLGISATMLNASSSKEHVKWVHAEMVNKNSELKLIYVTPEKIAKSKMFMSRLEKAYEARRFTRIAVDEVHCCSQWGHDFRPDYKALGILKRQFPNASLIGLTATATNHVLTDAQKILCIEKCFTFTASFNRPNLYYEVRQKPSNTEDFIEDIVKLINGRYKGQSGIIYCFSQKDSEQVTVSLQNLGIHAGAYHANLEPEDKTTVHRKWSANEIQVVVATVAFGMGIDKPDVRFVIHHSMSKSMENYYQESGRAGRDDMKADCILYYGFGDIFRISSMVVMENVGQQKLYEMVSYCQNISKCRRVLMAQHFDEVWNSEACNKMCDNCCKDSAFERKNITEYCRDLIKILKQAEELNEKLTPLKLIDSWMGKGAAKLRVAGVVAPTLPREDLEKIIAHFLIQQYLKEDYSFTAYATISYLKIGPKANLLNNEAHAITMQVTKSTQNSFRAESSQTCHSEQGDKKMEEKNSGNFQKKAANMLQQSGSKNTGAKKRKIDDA
Sequence of UniProt P03023 (whole entry, unmodified, looked up): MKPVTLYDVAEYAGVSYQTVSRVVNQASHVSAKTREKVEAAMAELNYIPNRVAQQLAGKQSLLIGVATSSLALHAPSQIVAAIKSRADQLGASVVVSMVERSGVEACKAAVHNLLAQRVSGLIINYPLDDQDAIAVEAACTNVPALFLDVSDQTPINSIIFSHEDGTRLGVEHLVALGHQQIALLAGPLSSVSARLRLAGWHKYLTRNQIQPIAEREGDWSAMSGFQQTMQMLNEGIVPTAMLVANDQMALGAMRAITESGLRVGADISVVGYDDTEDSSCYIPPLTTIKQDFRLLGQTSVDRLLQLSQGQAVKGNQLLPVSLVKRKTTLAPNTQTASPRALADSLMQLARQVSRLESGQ
Sequence of UniProt P25454 (whole entry, looked up): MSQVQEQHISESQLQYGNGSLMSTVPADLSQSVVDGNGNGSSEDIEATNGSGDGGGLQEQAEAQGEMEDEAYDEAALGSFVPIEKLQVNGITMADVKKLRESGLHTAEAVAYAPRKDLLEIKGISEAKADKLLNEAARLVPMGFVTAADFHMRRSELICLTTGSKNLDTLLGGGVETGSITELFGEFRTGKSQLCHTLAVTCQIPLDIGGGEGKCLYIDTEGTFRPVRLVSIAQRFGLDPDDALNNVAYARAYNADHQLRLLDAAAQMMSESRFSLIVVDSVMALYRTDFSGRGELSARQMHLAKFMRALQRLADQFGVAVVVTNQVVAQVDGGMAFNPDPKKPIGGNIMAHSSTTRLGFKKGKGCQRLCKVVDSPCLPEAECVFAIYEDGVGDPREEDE

`GGTGGTGGTGGTGGTGGT (ssDNA)`: binding “binds” (recA full length assumed F204A (Escherichia coli, UniProt P0A7G6); fluorescence anisotropy; single-stranded DNA; together with: ATPγS).
For `TGTTGTGTGGAATTGTGAGCGGATAACAATTTCACACAGG (dsDNA (Escherichia coli); blunt)`, binding read “binds” (lacI full length assumed N125A/D149A (Escherichia coli, UniProt P03023); filter binding; double-stranded DNA, one strand shown).
For `GGTTAGGGTTAGGGTTAGGGTTAG (ssDNA; 5'-phosphate)`, binding read “binds” (POT1 1-299 (Homo sapiens, UniProt Q9NUX5); EMSA; single-stranded DNA).
`DNA 1 GGATCTCGACGCTCTCCCTT / DNA 2 GAGAGCGTCGAGATCC (dsDNA; 3' 4-nt overhang, blunt end)`: binding “no binding” (RECQL 49-616 D230A/R232A (Homo sapiens, UniProt P46063); fluorescence anisotropy; double-stranded DNA; Mg2+ 5 mM, together with: ADPNP 2 mM).
Under binding, `ATAAGTCACATGATGATATTTGATTTTATTATATTTTTAAAAAAAGTAAAAAATAAAAAGTAGTTTATTTTTAAAAAATAAAATTTAAAATATTTCACAAAATGATTTCCGAA (dsDNA)` is recorded as “binds” (CENP-I 1-229 R225D (Thermochaetoides thermophila, UniProt G0SFF7); EMSA; double-stranded DNA, one strand shown).
For `GSGAGPETLV`, “normalised SPR binding response” read 56 normalised RU (human MAGI1-3/6 PDZ construct (MBP fusion); surface plasmon resonance; peptide; concentration not given; higher = stronger binding).
`epoetin alfa` has a mRNA level of 5.5 fold (UT7/EPO; RT-qPCR, refers to: SOCS1; concentration not given, 90 min, normalized to HPRT1; reference: vehicle).
`AAGGTGTGTGGGTGTGGTAATC (dsDNA)`: binding “binds” (RAP1/Yku70/Yku80 (Saccharomyces cerevisiae); EMSA; double-stranded DNA, one strand shown).
For `ATACGGGAAGTTTGAGGCGCCGTCCACTTGACCATAC (dsDNA)`, binding read “binds” (ERF-D2 full length assumed (Solanum lycopersicum, UniProt A0A3Q7JX06); EMSA; double-stranded DNA, one strand shown; competitor).
`BzATP` gave a normalized current of 0.0362 and 0.0363 and 0.0516 (P2X purinoceptor 7 (P2rx7, Rattus norvegicus, UniProt Q64663, Q143A/R125A); ion current, agonist, two-electrode voltage clamp; Xenopus laevis oocytes; 3.7 µM; reference: highest concentration response).
`TATTTTTAAAACAAAAATATATTAACCCCCCGAGAAAACTAAAATCTAAAATCTAGAAAC (dsDNA)`: binding “no binding” (LHY full length assumed (Arabidopsis thaliana, UniProt Q6R0H1); EMSA; double-stranded DNA, one strand shown).
For `TGAGGCGTGTTTGCCCACGTACTATCTGTACTGCAAGGTT (dsDNA)`, binding read “binds” (Transcription factor full length assumed (Rosa chinensis, UniProt A0A2P6P452); EMSA; double-stranded DNA, one strand shown).
For `AGTTGGCAAGTC (dsDNA)`, binding read “no binding” (NFIB 14-176 R117A/K126A (Homo sapiens, UniProt O00712); BLI; double-stranded DNA, one strand shown; together with: Zn2+ 1 mM).
For `ATTTTTATTTTATTTTT (ssDNA)`, binding read “binds” (ELAVL1 1-326 (Homo sapiens, UniProt Q15717); BLI; single-stranded DNA; pH 7.4).
Under “rate constant k-2”, `11-deoxycorticosterone` is recorded as 3.23 ± 0.354 s⁻¹ (CYP11B2 (human); substrate binding, stopped-flow global kinetic fitting; purified enzyme; 3-state induced fit model, together with: 40-fold excess adrenodoxin).
`CATGCTCCCAAAGCTTGAAGGAAAAGCTTAGGTATAGTTA (dsDNA)` — result for binding: “binds” (NAC domain-containing protein full length assumed (Musa acuminata, UniProt A0A804JLK1); EMSA; double-stranded DNA, one strand shown).
`Peginesatide` has a phosphorylation level of 4.6 fold (UT7/EPO; tyrosine phosphorylation, LC-MS/MS phosphoproteomics, GluC, refers to: SPTA1 tyrosine 2332; 10 nM, 15 min, together with: 10 U/mL EPO; reference: vehicle).
`DNA 1 TTAAAACATGTTGAGCTACAGCACCAGATTCAGCAATTAAGCTCTAAGCCATCCGCAAAAATGACCTCTTATCAA / DNA 2 TTGATAAGAGGTCATTTTTGCGGATGGCTTAGAGCTTAATTGCTGAATCTGGTGCTGTAGCTCAACATGTTTTAAATATGCAA (dsDNA; 3' 8 nt overhang)`: binding “binds” (MGM101 23-269 (Saccharomyces cerevisiae, UniProt P32787); native MS; double-stranded DNA).
`DNA 1 CACTGGCCGTCTTACGGTCGCTCTGCTCGACG / DNA 2 CGACCGTAAGACGGCCAGTG (dsDNA; 20 bp, 3' 12 nt overhang)` gave a Kd of 0.0717 ± 0.0128 µM (RECQL 63-592 Q324A (Homo sapiens, UniProt P46063); fluorescence anisotropy; double-stranded DNA; together with: Mg2+ 3 mM).
`CACTCCAGTACTGCACTC (dsDNA)`: binding “no binding” (ATF4 276-341 C310A (Homo sapiens, UniProt P18848); fluorescence polarization; double-stranded DNA, one strand shown; together with: Mg2+ 10 mM).
For `colistin`, the MIC was 1 mg/L (Pseudomonas aeruginosa; clinical isolate RKI 598/16).
`GAACAUAGAAAGAGAGAGAUAUAAA (ssRNA; m6A position 3)` — result for binding: “binds” (ECT2 full length assumed (Arabidopsis thaliana, UniProt Q9LJE5); EMSA; RNA).
For `CTGCTTTTGCTTTCCGTACTACCCAATTTCATAG (dsDNA)`, binding read “binds” (SPL2 1-415 (Malus domestica, UniProt D9ZJC1); EMSA; double-stranded DNA, one strand shown).
For `GSGAGSETKM`, “normalised SPR binding response” read 15 normalised RU (human SCRIB PDZ3-4 tandem (MBP fusion); surface plasmon resonance; peptide; concentration not given; higher = stronger binding).
For `GGTTAGGGTTAG (ssDNA; 5'-phosphate)`, binding read “binds” (POT1 1-299 Y9A (Homo sapiens, UniProt Q9NUX5); EMSA; single-stranded DNA).
`AATTCTCATTTTACTTACCGGACGCTATTAGCAGTGAAAATTTCCTGATAGTCGTCACCGCGTTTTGCGCACTCTTTCTCGTAGGTACTCAGTCCG (ssDNA)` — result for binding: “binds” (RAD51 full length assumed (Saccharomyces cerevisiae, UniProt P25454); cryo-EM; single-stranded DNA; together with: ATP).

Repeated from above:
`BzATP` gave a normalized current of 0.0362 and 0.0363 and 0.0516 (P2X purinoceptor 7 (P2rx7, Rattus norvegicus, UniProt Q64663, Q143A/R125A); ion current, agonist, two-electrode voltage clamp; Xenopus laevis oocytes; 3.7 µM; reference: highest concentration response).
`GGTGGTGGTGGTGGTGGT (ssDNA)`: binding “binds” (recA full length assumed F204A (Escherichia coli, UniProt P0A7G6); fluorescence anisotropy; single-stranded DNA; together with: ATPγS).
